Measurements from different studies.
Lines come from different studies, so protocols differ. ± gives the spread as reported.

For `O=C(O)CCC(NP(=O)(O)OCCC[C@@H](NC(=O)CC[C@H](NC(=O)CCCCCNC(=O)c1ccc([18F])cc1)C(=O)O)C(=O)O)C(=O)O` (stereo partly drawn), the cell uptake was 5.51 ± 0.77% (LNCaP; concentration not given, 1 h).
For `Cc1[nH]nc2c1N=C(c1ccccc1Cl)c1cnc(N3CCOCC3)cc1N2`, mRNA level read “increased” (4T1 and human TNBC cells; RT-qPCR, measured: CXCL10 and CXCL11; concentration not given, 24 h).
`C=CC1CN(C(=O)NCC=CCSSSCC=CCNC(=O)N2CC(C=C)OC2=S)C(=S)O1` (stereo not drawn) gave an inhibition of 73% (WB-F344 rat liver; hepatocyte damage; 10 µM, added: D-galactosamine).
`Cc1ccc(C(C)C)cc1.[Cl-].[Cl-].[Ru+2].c1ccc(P(=Nc2cccc3cccnc23)(c2ccccc2)c2ccccc2)cc1`: “annexin V positive cells” 32% (Jurkat; concentration not given, 24 h then 24 h washout, added: z-VAD-fmk).
`CNC(=N)NC(=N)NCCCCCCNC(=N)NC(=N)NC` — result for “cells unable to hyperpolarize”: ~1% (NCI-H1299; TMRM flow cytometry; 1 µM, 48 h, added: oligomycin 1 µM).
`C=C(C)[C@@H]1CC[C@]2(C(=O)OCO/N=[N+](\[O-])N3CCCC3)CC[C@]3(C)[C@H](CC[C@@H]4[C@@]5(C)CC[C@H](OC(C)=O)C(C)(C)[C@@H]5CC[C@]43C)[C@@H]12` — result for “cells in G2 phase”: 4.84% (B16-F10; PI flow cytometry; 1.0 µM).
With `FC(F)(F)c1ccnc(-c2cc(C(F)(F)F)ccn2)c1.FC(F)(F)c1ccnc(-c2cc(C(F)(F)F)ccn2)c1.[Cl-].[Cl-].[Ru+2].c1csc(-c2nc3c4cccnc4c4ncccc4c3[nH]2)c1` the phototherapeutic index was 11 (SK-MEL-28; cell viability; 100 J/cm2 light, normoxia, added: visible light 400-700 nm; baseline: dark over light EC50).
Under “lipid droplet size and distribution”, `OCc1nc(-c2cnc(N3CCC(Oc4ccccc4C(F)(F)F)CC3)s2)no1` is recorded as “no effect” (Huh-7, Huh7-SGR, Huh7.5, Huh7.5-FGR; CARS microscopy; below 250 nM, 96 h).
With `COc1ccc([C@@H]2CC(=O)c3c(O)cc(O[C@@H]4O[C@H](CO[C@@H]5O[C@@H](C)[C@H](O)[C@@H](O)[C@H]5O)[C@@H](O[C@H]5O[C@H](CO)[C@@H](O)[C@H](O)[C@H]5O)[C@H](O)[C@H]4O)cc3O2)cc1O` the cell count was 10000 ± 668 (MRC5; trypan blue exclusion; 100 µg/mL, 48 h).
For `Cc1nc(C)c(C=[N+]([O-])C(C)(C)C)nc1C`, “increase in protein level” read 18.9% (primary rat midbrain neurons; Western blot, measured: MEF2D; 30 µM, added: 20 µM MPP+).
With `Cc1ccc(C(C)C)cc1.O=C(N=P(c1ccccc1)(c1ccccc1)c1ccccc1)c1ccccn1.[Cl-].[Cl][Ru+]` the apoptotic cells was 44% (HCC1806; Annexin V/PI flow cytometry; IC50, 24 h).
`CC[C@H](C)[C@H](NC(=O)[C@H](CC(C)C)NC(=O)[C@@H](N)CS)C(=O)N[C@@H](CCC(=O)O)C(=O)N[C@@H](Cc1ccc(O)cc1)C(=O)NCC(=O)NCC(=O)N[C@@H](C)C(=O)N[C@@H](CC(=O)O)C(=O)N[C@@H](Cc1ccc(O)cc1)C(=O)N[C@@H](CCCCN)C(=O)N[C@H](C(=O)N[C@H](C(=O)N[C@@H](CC(N)=O)C(=O)N[C@@H](CC(C)C)C(=O)N[C@@H](CCCCN)C(=O)O)[C@@H](C)CC)[C@@H](C)O` — result for “VP2, Bax, caspase-3, caspase-9 levels”: “decreased” (DT40; western blot; infectious bursal disease virus; 50 to 100 nM, 12 h; baseline: infected untreated).
The IC10 of `C=C(CC)C(=O)c1ccc(OCC(=O)NCCCCNC(=O)COc2ccc(C(=O)C(=C)CC)c(Cl)c2Cl)c(Cl)c1Cl` is reported as ~0.2 µM (CoC1; cell growth, CCK-8; 72 h).
Under colony formation, `CC(C)(C)C(=O)Nc1ccc2[nH]c(CN3CCC(N(CCCN4CCOCC4)CC4OC(n5cnc6c(N)ncnc65)C(O)C4O)CC3)nc2c1` (stereo not drawn) is recorded as “inhibited” (H460, H1299, H1975, H446 R231Q cells; concentration not given, 7 to 10 days).
`COc1ccc(CC2COC(=O)C2Cc2ccc3c(c2)OCO3)cc1OC` (mixture of isomers) — result for viability: “decreased” (A2780; MTT; concentration not given, 72 h).
With `C=Cc1cc2c(cc1OC)C1(C)Cc3cnc(C)nc3C(C)(C)C1CC2` (stereo not drawn) the testosterone level was 227 ± 3 µmol/L (TM3; ELISA; culture medium; 20 µM, 24 h).
Under intracellular lactate, `Cn1c2cc([S+](C)[O-])sc2c2cnn(Cc3cccc(N)c3)c(=O)c21` (stereo not drawn) is recorded as “decreased” (H1299; LC-MS/MS; 25 µM, 36 h).
For `O=C(Nc1ccc(C(F)(F)F)cc1Cl)c1cc(Cl)ccc1O`, “AR-V7 and STUB1 co-localization” read “increased” (293 cells expressing AR-V7, HSP70 and Flag-STUB1; dual immunofluorescence; 1 µM).
For `CCOP(=O)(CC(=O)Nc1ccc(S(=O)(=O)N(CC(N)=O)c2ccc(N(CC(N)=O)S(=O)(=O)c3ccc(OC)cc3)c3ccccc23)cc1)OCC`, protein level read “decreased” (mouse primary cortical neurons; western blot, measured: BACE1; 20 µM, added: amyloid beta).
The selectivity index of `CC(C)=CCC1=C([O-])C(=O)c2ccccc2C1=O.CC(C)=CCC1=C([O-])C(=O)c2ccccc2C1=O.[Cu+2].c1ccc(-c2ccnc3c2ccc2c(-c4ccccc4)ccnc23)cc1` is reported as 6 (MRC5 and A2780; MTT; 24 h; baseline: IC50 MRC5 over IC50 A2780).
`COc1cc(CNC(=O)C[C@H](C)CCC=C(C)C)ccc1OCc1cn(-c2ccc(Cl)c(Cl)c2)nn1` gave a growth percent of 71.7% (BT-549 breast cancer cells; SRB; 10 µM, 48 h).
For `CCN(CC)CC(=O)Nc1cccc(-n2cc(-c3ccc4ccc(-c5cn(-c6cccc(NC(=O)CN(CC)CC)c6)nn5)cc4c3)nn2)c1`, “HRE reporter activity decrease” read 25% (RCC4; luciferase reporter; 10 x IC50, normoxia).
`CCCCN1C(=O)c2cccc3c(NCCCCCCCCCCN4CCOCC4)ccc(c23)C1=O`: “Pearson's correlation coefficient” 0.91 ± 0.02 (BHK-21; confocal microscopy, measured: endoplasmic reticulum colocalisation; 0.2 µM, added: 0.3 µM ER-Tracker Red).
`COC(=O)C1=CO[C@@H](C)[C@@H]2Cn3ccc4c5ccccc5nc-4c3C[C@H]12` has a growth inhibition of < 50% (neonatal foreskin fibroblasts; 200 µM).
For `O=Cc1c(O)ccc2ccccc12`, “log2 fold change” read 2.52 (HUVEC; RNA sequencing, measured: RASGRF2; 75 µM, 24 h; baseline: DMSO).
`COc1cc2c(Nc3ccc(NC(=O)c4ccccc4)cc3)ncnc2cc1OCCCN1CCOCC1`: BubR1 phosphorylation “not detected” (HeLa, mitotic; concentration not given, 9.5 h after G1/S release).
The PGE2 level of `CCC12CCc3c(c4ccccc4n3C)CCN(CC3OC31)C2` (stereo not drawn) is reported as 15.3% (BV-2; ELISA; 25 µM, 1 h pretreatment, added: LPS; baseline: LPS alone).
`O=C(O)c1ccc(/C=C2\SC(=S)N(Cc3cccc(C(F)(F)F)c3)C2=O)cc1`: NLRP3 ubiquitination “no effect” (mouse BMDM; 10 µM, added: LPS).
`C#CCN(CC(=O)O[C@H]1[C@H](C)O[C@@H](O[C@H]2[C@H](N(C)C)[C@@H](O)[C@H](O[C@H]3[C@@H](CC=O)C[C@@H](C)[C@@H](O[C@H]4CC[C@H](N(C)C)[C@@H](C)O4)/C=C/C=C/C[C@@H](C)OC(=O)C[C@@H](O)[C@@H]3OC)O[C@@H]2C)C[C@@]1(C)O)C(=O)c1ccc(C(F)(F)F)cc1` — result for “S phase cells”: 37.8% (HGC-27; PI flow cytometry; 0.90 µM, 48 h).
The growth percent of `COc1cc(CNC(=O)C[C@H](C)CCC=C(C)C)ccc1OCc1cn(-c2ccccc2)nn1` is reported as 83.3% (BT-549 breast cancer cells; SRB; 10 µM, 48 h).
`CC(C)c1cccc(C(C)C)c1-n1ccn(-c2c(C(C)C)cccc2C(C)C)c1=[Se].[Cl][Ag]` has a resistance factor of 1.2 (LoVo-OXP colon cancer cells; MTT; baseline: LoVo-OXP over LoVo IC50).
The internalization of `C[C@@H](O)[C@H](NC(=O)[C@@H]1CSSC[C@H](NC(=O)[C@@H](Cc2ccccc2)NC(=O)CCOCCOCCOCCOCCOCCOCCOCCOCCNC(=S)Nc2ccc(C[C@H]3CN(CC(=O)O)CCN(CC(=O)O)CCN3CC(=O)O)cc2)C(=O)N[C@@H](Cc2ccc(O)cc2)C(=O)N[C@H](Cc2c[nH]c3ccccc23)C(=O)N[C@@H](CCCCN)C(=O)N[C@@H]([C@@H](C)O)C(=O)N1)C(=O)O` [copper-64 labelled] is reported as 3460 ± 130 fmol/mg (HCT116 expressing SSTR2; 4 h, 64Cu-labelled).
For `COC(=O)C1C(C=NNCC(F)(F)F)=Cc2cc3c(cc2C1c1cc(OC)c(OC)c(OC)c1)OCO3` (stereo not drawn), the selectivity index was > 4.1 (uninfected mouse splenocytes; baseline: splenocyte CC50 over amastigote EC50).
With `COc1cc(CNC(=O)C[C@H](C)CCC=C(C)C)ccc1OCc1cn(-c2ccc(Br)cc2)nn1` the growth percent was 57.7% (SNB-19 CNS cancer cells; SRB; 10 µM, 48 h).
For `CCCCCCCCCCCCCC(=O)N1CCC[C@H]1C(=O)N[C@@H](CO)C(=O)N[C@@H](CCC(N)=O)C(=O)N[C@@H](CO)C(=O)N[C@@H](CCCCNC(=O)c1ccc(Br)cc1)C(=O)N[C@@H](CO)C(=O)N[C@@H](CCCCNC(=O)c1ccc(Br)cc1)C(=O)N[C@@H](C)C(=O)O`, the apoptotic cells was 47% (AsPC-1; annexin V/PI; 50 µM, 48 h).
The Emax of `Oc1c(/N=N/c2ccccn2)ccc2ccccc12` is reported as 75% (LDR; silenced GFP reporter derepression, microscopy; overnight; baseline: sodium butyrate).
For `CC(=C(c1ccc(Cl)cc1)c1ccc(OCCN2CCCCC2)cc1)c1ccc(Cl)cc1`, “mean growth inhibition” read “no inhibition” (60 NCI tumour cell lines; NCI one-dose screen; 10 µM).
Under cellular uptake, `CCCCCC(=O)N[C@H]1CSCc2cc(CSCCNC(=O)CCCCCNC(=O)CC[C@H](NC(=O)CCC(C(=O)O)N3CCN(CC(=O)O)CCN(CC(=O)O)CCN(CC(=O)O)CC3)C(=O)NCCCOc3ccc4nccc(C(=O)NCC(=O)N5CC(F)(F)C[C@H]5C#N)c4c3)cc(c2)CSC[C@@H](C(=O)O)NC(=O)[C@H](Cc2ccccc2)NC(=O)[C@H](CCC(N)=O)NC(=O)[C@H]([C@@H](C)O)NC(=O)[C@@H]2CCCN2C(=O)[C@@H]2CCCN2C1=O` (stereo partly drawn) is recorded as “inhibited” (HT1080 expressing human FAP; added: UAMC1110).
For `COc1cc(CNC(=O)C[C@H](C)CCC=C(C)C)ccc1OCc1cn(-c2ccccc2[N+](=O)[O-])nn1`, the growth percent was 95.6% (OVCAR-5 ovarian cancer cells; SRB; 10 µM, 48 h).
`O=C1OCC2=C1C(c1cccc(Br)c1)C1=C(N2)C(=O)c2ccccc2C1=O` (stereo not drawn) — result for “cells in S phase”: 30.8% (SK-LU-1 cells; PI flow cytometry; 0.08 µM, 24 h).
`Clc1cccc(Nc2nc(NCc3ccccc3)c3ccccc3n2)c1` gave a GI50 of 4.1 µM (SW-403; cell growth or viability; 72 h).
With `COc1cc(CNC(=O)C[C@H](C)CCC=C(C)C)ccc1OCc1cn(-c2ccc(C#N)cc2)nn1` the growth percent was 83.6% (SNB-19 CNS cancer cells; SRB; 10 µM, 48 h).

Repeated from above:
`CC(C)c1cccc(C(C)C)c1-n1ccn(-c2c(C(C)C)cccc2C(C)C)c1=[Se].[Cl][Ag]` has a resistance factor of 1.2 (LoVo-OXP colon cancer cells; MTT; baseline: LoVo-OXP over LoVo IC50).
With `Cc1ccc(C(C)C)cc1.O=C(N=P(c1ccccc1)(c1ccccc1)c1ccccc1)c1ccccn1.[Cl-].[Cl][Ru+]` the apoptotic cells was 44% (HCC1806; Annexin V/PI flow cytometry; IC50, 24 h).
